# Experimental data collected from several papers.
# Every numbered part comes from another study and shows a few of its results, in no order. Changes are numbered by the printed parent chain.

# Block 1
# Target: RING finger protein unkempt homolog, zinc fingers 1-6, GST-SBP tag (UNK, Homo sapiens, UniProt Q9C0B0, residues 30-357)
# Technique: RNA Bind-n-Seq
# Form: RNA
# Medium: in vitro
# Tested at: not given
# Notes: RNA with constant flanks, ends assumed
# Baseline: input RNA pool
# Reading: higher = stronger binding
# Shared flanks, not repeated: GGGAGUUCUACAGUCCGACGAUC … CAACAGAGGAUUGAGCAUCA
# Construct (chain): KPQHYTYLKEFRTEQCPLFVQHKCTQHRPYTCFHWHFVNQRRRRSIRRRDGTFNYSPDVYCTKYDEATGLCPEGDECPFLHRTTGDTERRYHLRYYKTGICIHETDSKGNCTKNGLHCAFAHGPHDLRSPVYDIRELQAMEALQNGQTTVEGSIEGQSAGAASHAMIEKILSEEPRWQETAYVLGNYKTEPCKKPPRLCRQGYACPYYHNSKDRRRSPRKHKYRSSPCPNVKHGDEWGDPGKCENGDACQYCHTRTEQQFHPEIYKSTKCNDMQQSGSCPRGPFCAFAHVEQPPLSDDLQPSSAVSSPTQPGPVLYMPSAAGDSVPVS
Strand,bound/input enrichment
UCUGAUGACUUUAAUUUUAAAAUCUUGUGACAUUUUGCUUAUACUAAAAGUUAUCUAUCUUCCGUUGAAUAUUUUCUUUUGGAGAGAUUGUAUAUUUUAAAAUACUGUUUAGAGUUUAUG,0.454 ratio
CGUGAAACCUAUUCUUAGCUCACAGGCCAUGGAGAAGCUGGUGGGGACCAGACCCAGCUCCUCCGCUGGCUGGGCUGGGGAGGGGGUAGUGACAGUGGCAGCUGCUACUCACUGCUCAGU,0.0643 ratio
CAGAACCUACCUUCUGGAUCAUCACGUGUUGGAGCCAUUAAGCUUACCUACAUUUCAAAGGUCCGCGAUGCUACUAAGCUAAGGCCAAAGGCGGAGUUCUGUUUUGUUAUGAAUGCAGGA,0.0809 ratio
CUUCAUUUUACACUAAAGCAUAAUGUCAUGAAGUUUCAUAUCUGUACAGAUUAUUUAAAUCACCGAAAUGAAAAAUGUUCUCUGCUUGCUACCAAAGGACAAACUCUUGGAAACGGACAU,0.135 ratio
GAUAUGAAACAUUGGCCCUUUAUGGUGGUGAAUGAUGCUGGCAGGCCCAAGGUCCAAGCCGAAUACAAGGGAGAGACCAAAAGCUUCUAUCCAGAGGAGGUGUCUUCUAUGGUUCUGACA,0.232 ratio
ACUGGUUUUGGAUUAGGAAUUGUUUUCUCACUUACCUUCUUUAAAAGAAGAAUGUGGCCAUCCGCCUUCGGUUCUGGCAUGGGAUUAGGAAUGGCUUAUUCCAACUGUCAGCAUGAUUUC,0.317 ratio
UAUUUACAACAGCUCACCGGAGCGAGAACAGUUCCUCGGGUCUUCAUAGGUAAAGACUGCACCGGCGGAUGCAGUGAUCUAAUCUCCAUGCAACAGACUGGGGAGCUGAUGACUCGGCUG,0.164 ratio
UUACAAGUAUUUUAAUUUAAGUUCAGUGAACUUUUUUGUAGCUGGGUUAAAUCUUUUUAUUUCCGUAUGGCCUUAUGGCAAAGAACACUGUAUUAUUUUAAUAAUCACACAAUUGUGACG,0.929 ratio
AUCUCUUUUGGUUUUGAUAAUCUGAAGUGUUUUUUUCUCGUUUUGGCCUUCCAAACUGCAUUUGGUCCGGUGAAUUAAGAAAAAUAUUGCCAUCAAGAAUUACUUGUGUUUUCACAGAGA,0.182 ratio
GUGACUAACUUGUUGCAGUUGCCUCAGUACUUUGAUUUGGAAAUAUAUACCACUGGACGAUCCGAAAAGCAUUUGGAUGCCUUAUUGCGACAGAUCCGGAAUAUUGUAGAGAAGCACACA,0.307 ratio

# Block 2
# Target: ABI1, truncated, D143A, DHFR fusion (Arabidopsis thaliana)
# Technique: DHFR PCA, deep sequencing
# Medium: yeast
# Notes: methotrexate growth selection, single substitutions
# Together with: (+)-ABA 0.0091 µM
# Baseline: wild-type fitted maximum
# Reading: higher = stronger binding
# Parent: PYL1, truncated, DHFR fusion (Arabidopsis thaliana); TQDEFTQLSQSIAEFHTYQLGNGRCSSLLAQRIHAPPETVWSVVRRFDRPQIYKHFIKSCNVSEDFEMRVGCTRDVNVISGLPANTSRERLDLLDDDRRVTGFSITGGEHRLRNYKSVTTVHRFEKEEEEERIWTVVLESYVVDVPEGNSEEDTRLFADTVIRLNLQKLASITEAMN
Change,relative binding score [%]
E139I,-6.35
C25D,-1.83
N165P,4.69
S9Q,50.1
D96E,47.1
S117I,-9.3
G81I,-0.387
S27K,-4.38

# Block 3
# Target: CCNF, cyclin fold, Cln2 fusion (human)
# Technique: yeast growth competition, sequencing
# Medium: yeast
# Notes: strong parent motif
# Baseline: not given
# Reading: higher = stronger binding
# Parent: MICAL3 docking peptide (human); LQLRRQLSFSEDS
Change,normalised enrichment score
LQLRRCLSFSEDS [Q6C],5.43
LQLRRQPSFSEDS [L7P],0.1
LQLRRQLSDSEDS [F9D],-0.166
LQLCRQLSFSEDS [R4C],5.2
LQLDRQLSFSEDS [R4D],0.207
LQLRRQLSPSEDS [F9P],-0.0265

# Other studies, line by line
Molecule,target,assay,system,setting,scale,measurement,value
"PhoQ, residues 284 288 289 292 302 303 SCEHLI","PhoP, residues 12 14 15 18 19 LHSVW (Escherichia coli, UniProt P23836)","Sort-seq, measured: YFP reporter",E. coli,"PhoQ-PhoP variant library, together with: 10 µM Mg2+","baseline: high Mg2+ state, higher = stronger signaling",fold induction,5.74

# Some of these lines once more (block 2):
Change,relative binding score [%]
G81I,-0.387
